Results of several laboratories.
Protocols differ between the studies behind these lines. Numbers after ± are the reported error.

Compound | test | system | conditions | how to read | endpoint | value
CNC(=O)c1c(C)oc2cc(Oc3ncnc4cc(OC)c(OC)cc34)ccc12 | final population PK model | human | oral | – | elimination half-life | 43.2 h
Cl.[2H]C([2H])([2H])CC(=O)c1cnc(NC(=O)C2CC2)cc1Nc1cccc(-c2ncn(C([2H])([2H])[2H])n2)c1OC | geometric mean | human | oral, 10 mg once daily, day 1, fasted, liquid, multiple dose | – | elimination rate constant | 2.61e-05 s⁻¹
NC[C@@]1(CC(=O)O)[C@@H]2CC[C@H]3C[C@@H]2[C@@H]1C3 | – | human, moderate renal impairment, plasma | oral, 20 mg single dose, geometric mean | – | elimination rate constant | 3.22e-05 s⁻¹
Cc1ccc(C)c(OCCCC(C)(C)C(=O)O)c1 | – | human subjects | with: lopinavir-ritonavir | baseline: without lopinavir-ritonavir | elimination half-life | no effect
CC(F)(F)c1cc(F)ccc1-c1sc2cc(O)ccc2c1Oc1ccc(/C=C/C(=O)O)cc1 | – | human patients, plasma | oral, 200 to 900 mg, geometric mean, preliminary | – | elimination half-life | 3.1 to 5.6 h
N#Cc1ccc(C(c2ccc(C#N)cc2)n2cncn2)cc1 | one-compartment model | human patients, plasma | oral | – | elimination half-life | 60 to 90 h
O=C(CN[C@@H]1CCNC1)N1CCC[C@H]1B(O)O | PK model | human, plasma | subcutaneous, 60 mg once daily | – | elimination rate constant | 0.000125 s⁻¹
CC[C@H](Nc1ncnc2[nH]cnc12)c1oc2ccccc2c(=O)c1-c1cccc(F)c1 | – | human, plasma | oral, 800 mg twice daily, with: romidepsin 14 mg/m2 | – | elimination rate constant | 2.75e-05 ± 3.17e-05 s⁻¹
COc1ncnn2ccc(-c3cnc4nc(C)n(Cc5nnc([C@@H](C)F)o5)c4c3)c12 | LC-MS/MS | human, plasma | oral, 105 mg capsule, cycle 1 day 1 | – | elimination half-life | 5.23 h
NCCONC(=O)[C@@H]1CC[C@@H]2CN1C(=O)N2OS(=O)(=O)O | – | human, plasma | intravenous infusion, 2 g multiple doses, day 9, phase I | – | elimination rate constant | 7.36e-05 s⁻¹
CCNCCCNC/C=C\CNCCCNCC | LC-MS/MS | human cancer patients, plasma | intravenous infusion 60 min, 50 mg, median, cycle 1 | – | elimination rate constant | 0.0011 s⁻¹

Excerpt of the above:
Compound | test | system | conditions | how to read | endpoint | value
Cl.[2H]C([2H])([2H])CC(=O)c1cnc(NC(=O)C2CC2)cc1Nc1cccc(-c2ncn(C([2H])([2H])[2H])n2)c1OC | geometric mean | human | oral, 10 mg once daily, day 1, fasted, liquid, multiple dose | – | elimination rate constant | 2.61e-05 s⁻¹
